Assay results pooled from the literature.
Lines come from different studies, so protocols differ. Values joined by “and” are separate records of one study, mostly repeats; a detail may differ. Numbers after ± are the reported error.
SLC6A3 W84L: Sodium-dependent dopamine transporter (SLC6A3, Homo sapiens, UniProt Q01959, W84L)
UniProt Q01959, sequence (whole entry, unmodified, looked up): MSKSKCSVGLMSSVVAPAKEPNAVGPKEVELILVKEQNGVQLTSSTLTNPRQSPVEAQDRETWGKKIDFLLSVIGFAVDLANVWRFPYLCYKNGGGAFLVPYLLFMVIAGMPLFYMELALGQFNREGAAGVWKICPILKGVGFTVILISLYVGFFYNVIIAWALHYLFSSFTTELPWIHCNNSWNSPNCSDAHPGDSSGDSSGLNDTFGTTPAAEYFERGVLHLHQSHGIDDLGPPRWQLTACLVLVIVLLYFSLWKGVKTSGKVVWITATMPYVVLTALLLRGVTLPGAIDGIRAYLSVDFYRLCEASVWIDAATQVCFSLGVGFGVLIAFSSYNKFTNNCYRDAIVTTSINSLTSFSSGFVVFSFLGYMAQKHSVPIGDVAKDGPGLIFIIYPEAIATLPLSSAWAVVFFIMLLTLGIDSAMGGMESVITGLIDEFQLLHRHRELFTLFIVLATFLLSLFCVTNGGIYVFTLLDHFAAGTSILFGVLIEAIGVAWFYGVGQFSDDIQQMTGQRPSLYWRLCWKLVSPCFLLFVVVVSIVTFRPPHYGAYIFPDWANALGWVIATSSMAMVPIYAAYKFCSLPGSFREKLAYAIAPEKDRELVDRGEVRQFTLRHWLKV
UDP-3-O-acyl-N-acetylglucosamine deacetylase C40S: UDP-3-O-acyl-N-acetylglucosamine deacetylase (Pseudomonas aeruginosa, UniProt P47205, C40S)
DNA polymerase III PolC-type: DNA polymerase III PolC-type (Bacillus subtilis, UniProt P13267)
UniProt Q9NWT6, sequence (whole entry, looked up): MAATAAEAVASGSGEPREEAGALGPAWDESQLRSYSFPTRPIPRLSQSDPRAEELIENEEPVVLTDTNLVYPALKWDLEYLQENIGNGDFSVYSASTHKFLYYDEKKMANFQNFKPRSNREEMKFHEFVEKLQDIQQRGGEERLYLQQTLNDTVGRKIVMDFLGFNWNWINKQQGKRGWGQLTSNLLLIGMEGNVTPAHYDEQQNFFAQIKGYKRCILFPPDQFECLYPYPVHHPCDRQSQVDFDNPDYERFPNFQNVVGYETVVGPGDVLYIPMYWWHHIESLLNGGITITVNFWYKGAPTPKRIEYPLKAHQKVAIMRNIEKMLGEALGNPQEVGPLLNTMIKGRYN
UniProt P13267, sequence (whole entry, looked up): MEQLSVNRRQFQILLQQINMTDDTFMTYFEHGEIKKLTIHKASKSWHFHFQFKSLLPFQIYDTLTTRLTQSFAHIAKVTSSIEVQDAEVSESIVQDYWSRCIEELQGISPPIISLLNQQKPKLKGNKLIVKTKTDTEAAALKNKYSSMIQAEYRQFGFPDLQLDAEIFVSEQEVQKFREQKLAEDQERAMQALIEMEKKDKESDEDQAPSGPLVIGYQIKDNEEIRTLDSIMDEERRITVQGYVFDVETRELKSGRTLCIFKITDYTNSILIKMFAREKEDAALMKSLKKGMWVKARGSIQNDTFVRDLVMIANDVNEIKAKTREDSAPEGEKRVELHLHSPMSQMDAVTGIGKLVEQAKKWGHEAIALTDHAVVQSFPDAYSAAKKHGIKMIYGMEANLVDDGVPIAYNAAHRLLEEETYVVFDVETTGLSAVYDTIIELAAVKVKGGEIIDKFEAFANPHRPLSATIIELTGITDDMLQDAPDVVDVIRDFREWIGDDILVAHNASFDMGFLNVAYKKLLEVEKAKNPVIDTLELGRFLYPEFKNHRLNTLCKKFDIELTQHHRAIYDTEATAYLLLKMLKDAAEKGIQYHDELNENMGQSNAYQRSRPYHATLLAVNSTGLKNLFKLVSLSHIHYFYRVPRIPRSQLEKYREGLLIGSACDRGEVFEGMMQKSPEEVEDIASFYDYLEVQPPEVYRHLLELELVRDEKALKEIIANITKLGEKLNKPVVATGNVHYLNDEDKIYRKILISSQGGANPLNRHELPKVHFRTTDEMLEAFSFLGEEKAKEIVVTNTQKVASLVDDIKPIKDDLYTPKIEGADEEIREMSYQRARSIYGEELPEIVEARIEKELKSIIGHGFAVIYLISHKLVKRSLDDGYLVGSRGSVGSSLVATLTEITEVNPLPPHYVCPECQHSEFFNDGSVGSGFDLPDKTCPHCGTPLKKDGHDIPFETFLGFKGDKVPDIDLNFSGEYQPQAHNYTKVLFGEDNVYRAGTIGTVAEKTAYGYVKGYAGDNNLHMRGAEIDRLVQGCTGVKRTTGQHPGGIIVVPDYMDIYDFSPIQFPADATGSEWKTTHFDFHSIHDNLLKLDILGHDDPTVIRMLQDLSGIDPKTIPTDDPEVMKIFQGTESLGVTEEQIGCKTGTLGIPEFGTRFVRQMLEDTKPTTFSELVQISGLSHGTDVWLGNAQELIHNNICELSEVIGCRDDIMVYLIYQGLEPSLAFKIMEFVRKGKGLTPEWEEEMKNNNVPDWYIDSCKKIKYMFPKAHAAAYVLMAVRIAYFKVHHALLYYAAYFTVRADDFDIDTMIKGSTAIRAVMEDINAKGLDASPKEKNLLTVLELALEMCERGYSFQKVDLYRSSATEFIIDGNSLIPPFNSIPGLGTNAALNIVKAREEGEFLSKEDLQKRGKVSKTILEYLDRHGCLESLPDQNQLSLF
UniProt Q14765, sequence (whole entry, looked up): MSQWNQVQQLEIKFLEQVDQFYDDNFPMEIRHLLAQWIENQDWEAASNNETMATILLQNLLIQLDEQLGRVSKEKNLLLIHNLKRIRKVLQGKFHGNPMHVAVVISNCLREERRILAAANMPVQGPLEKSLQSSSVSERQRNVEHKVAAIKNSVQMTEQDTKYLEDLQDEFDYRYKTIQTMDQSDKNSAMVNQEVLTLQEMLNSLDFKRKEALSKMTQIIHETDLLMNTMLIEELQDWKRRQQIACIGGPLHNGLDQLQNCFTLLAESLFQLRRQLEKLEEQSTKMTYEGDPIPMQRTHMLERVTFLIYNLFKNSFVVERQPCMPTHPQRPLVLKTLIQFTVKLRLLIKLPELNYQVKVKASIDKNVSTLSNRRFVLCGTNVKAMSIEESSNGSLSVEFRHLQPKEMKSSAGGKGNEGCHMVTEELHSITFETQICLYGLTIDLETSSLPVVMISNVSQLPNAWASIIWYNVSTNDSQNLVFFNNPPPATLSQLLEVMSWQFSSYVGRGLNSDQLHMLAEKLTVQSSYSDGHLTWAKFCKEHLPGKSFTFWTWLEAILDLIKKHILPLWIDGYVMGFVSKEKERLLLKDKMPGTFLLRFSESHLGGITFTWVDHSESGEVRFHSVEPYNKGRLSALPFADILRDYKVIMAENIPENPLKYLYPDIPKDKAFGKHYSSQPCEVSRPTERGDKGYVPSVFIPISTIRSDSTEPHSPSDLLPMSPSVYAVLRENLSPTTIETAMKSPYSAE
UniProt P05182, sequence (whole entry, looked up): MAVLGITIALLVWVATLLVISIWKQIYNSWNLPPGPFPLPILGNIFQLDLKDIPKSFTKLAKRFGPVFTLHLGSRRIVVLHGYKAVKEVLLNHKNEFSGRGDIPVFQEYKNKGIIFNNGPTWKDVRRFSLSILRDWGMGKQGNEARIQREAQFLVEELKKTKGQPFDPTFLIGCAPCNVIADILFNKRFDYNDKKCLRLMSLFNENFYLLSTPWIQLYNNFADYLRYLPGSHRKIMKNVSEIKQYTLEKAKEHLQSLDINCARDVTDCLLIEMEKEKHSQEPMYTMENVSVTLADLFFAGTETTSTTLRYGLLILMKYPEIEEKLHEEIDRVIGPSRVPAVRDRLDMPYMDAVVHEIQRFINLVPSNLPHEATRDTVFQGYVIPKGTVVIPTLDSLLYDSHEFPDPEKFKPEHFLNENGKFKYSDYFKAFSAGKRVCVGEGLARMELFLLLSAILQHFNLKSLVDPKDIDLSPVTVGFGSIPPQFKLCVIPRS
UniProt P0DMS8, sequence (whole entry, looked up): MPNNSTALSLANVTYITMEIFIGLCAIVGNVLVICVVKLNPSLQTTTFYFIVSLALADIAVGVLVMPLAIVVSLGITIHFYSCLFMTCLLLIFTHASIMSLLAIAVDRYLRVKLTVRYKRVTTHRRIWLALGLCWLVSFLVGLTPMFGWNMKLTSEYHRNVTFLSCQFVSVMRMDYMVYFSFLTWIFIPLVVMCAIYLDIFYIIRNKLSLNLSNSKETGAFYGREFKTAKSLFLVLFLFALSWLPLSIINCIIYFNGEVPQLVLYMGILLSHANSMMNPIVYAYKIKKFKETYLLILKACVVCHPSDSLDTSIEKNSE

O=P(O)(O)Oc1ccccc1OP(=O)(O)O
Ki (Signal transducer and activator of transcription 4 (Homo sapiens, UniProt Q14765); inhibitor): 34 ± 3 µM

C/C(=C\C(=O)OCCCCCCCC(=O)Nc1c2sscc-2[nH]c1=O)[C@@H](O)[C@@H]1OC[C@H](C/C=C/[C@@H](C)[C@H](C)O)[C@@H](O)[C@H]1O
Ki (Isoleucine--tRNA ligase (ileS, Staphylococcus aureus, UniProt Q5HGN8); adenylation activity, inhibitor, ATP-PPi exchange; enzyme 6.5 nM, preincubation, with: L-isoleucine 2 mM): 0.019 ± 0.004 µM

C=CC(O)CO (stereo not shown)
Ki (Cytochrome P450 2E1 (Cyp2e1, Rattus norvegicus, UniProt P05182); 4-nitrophenol oxidation, inhibitor; F344 rat liver microsomes; 30 min, pH 7.4, inhibitor binding to substrate-bound enzyme, with: 4-nitrophenol): 1200 µM

Cc1cccc(C)c1N1C(=O)CNC2(CCN(C)CC2)C1=O
Ki (Sodium-dependent dopamine transporter (SLC6A3, Homo sapiens, UniProt Q01959); binding): > 10 µM

O=C(O)c1cccc(Cc2c[nH]c3cc(-c4ccc5cc[nH]c5c4)ccc23)c1
Ki (Envelope glycoprotein gp160, gp41 hydrophobic pocket (env, Human immunodeficiency virus type 1 group M subtype B, UniProt P04578, K574X)): 1.2 µM

CN1[C@@H]2CC[C@H]1C[C@@H](OC(=O)c1ccccc1)C2
Ki (SLC6A3 W84L; binding, [3H]CFT binding inhibition; HEK293; 15 min, 20 °C, with: 130 mM Na+): 27.7 ± 0.878 µM

COc1cc(Nc2ncc(F)c(Nc3ccc4c(n3)NC(=O)C(C)(C)O4)n2)cc(OC)c1OC
Ki (Adenosine receptor A3 (ADORA3, Homo sapiens, UniProt P0DMS8); binding, radioligand binding): 0.0158 µM

C[C@@H](O)[C@H](NC(=O)c1ccc(C#Cc2ccccc2)cc1)C(=O)NO
Ki (UDP-3-O-acyl-N-acetylglucosamine deacetylase C40S; enzyme activity, inhibitor): 0.00116 µM

O=C(O)CCC(=O)C(=O)O
Ki (Hypoxia-inducible factor 1-alpha inhibitor (HIF1AN, Homo sapiens, UniProt Q9NWT6); cosubstrate): > 1000 µM and > 1300 µM

CN1CCN(CCOC(c2ccccc2)c2ccccc2)CC1
Ki (Sodium-dependent dopamine transporter (SLC6A3, Homo sapiens, UniProt Q01959, D313N); binding; HEK293 expressing DAT D313N; 0 mM Na+ with NMDG-Cl buffer, with: [3H]CFT): 0.338 ± 0.0196 µM

Nc1ncnc2c1ncn2[C@@H]1O[C@H](COP(=O)(O)OP(=O)(O)OP(=O)(O)O)[C@@H](O)[C@H]1O
Ki (GTP 3',8-cyclase (moaA, Staphylococcus aureus, UniProt P69848); enzyme activity, GTP-competitive inhibitor, Cheng-Prusoff; with: GTP Km 3.1 µM): 106 ± 8 µM

C[C@@H](O)[C@H](NC(=O)c1ccc(C#CC#Cc2ccccc2)cc1)C(=O)NO
Ki (UDP-3-O-acyl-N-acetylglucosamine deacetylase C40S; bio-layer interferometry; 298 K): 0.000655 µM

Cn1cnc2nc(NCc3ccc(Cl)c(Cl)c3)[nH]c(=O)c21
Ki (DNA polymerase III PolC-type; inhibitor): 0.32 µM

O=C(O)CNCP(=O)(O)O
Ki (EPSP synthase (Zea mays, UniProt A0A1D6NVZ6, K358R/P168S/T164I)): 841 ± 61 µM

c1ccc(C(OCCN2CCNCC2)c2ccccc2)cc1
Ki (SLC6A3 W84L; binding, [3H]CFT binding inhibition; HEK293; 15 min, 20 °C, with: 130 mM Na+): 0.556 ± 0.0715 µM

CCOCCn1cnc2nc(NCc3ccc(Cl)c(Cl)c3)[nH]c(=O)c21
Ki (DNA polymerase III PolC-type; inhibitor): 0.55 µM
